Published values pooled from the literature.
Parts stem from different laboratories: compare values within a part only.

Study 1
Target: Interferon regulatory factor 5, full length, phosphomimetic (IRF5, Homo sapiens, UniProt Q13568-2, residues 1-514, K96S/S451D/S453D/S456D/S462D)
Technique: protein-binding microarray
Molecule type: double-stranded DNA, one strand shown
Matrix: in vitro
Concentration: 250 nM
Notes: 60-bp whole probe
Together with: salmon DNA 0.4 mg/ml
Baseline: random background probes
Direction: higher = stronger binding
All sequences stand within: GCCTAGCAC … GTGCTAGGTCTTGATTCGCTTGACGCTGCTG
`CGCTCTGTGCTCTTTGGGCT` gave a log fluorescence of -0.474 z-score.
`TCAAGAATCCCCTTCTAACT` has a log fluorescence of -0.101 z-score.
With `TCACGTGTTTTTCTCCTACT` the log fluorescence was 0.8 z-score.
With `GACGATCTAAGTTTCGAGAC` the log fluorescence was 4 z-score.
`TTTGATATCAGTTTCGATTA` has a log fluorescence of 10.3 z-score.

Study 2
Target: Sal-like protein 4, full length isoform B (SALL4, Homo sapiens, UniProt Q9UJQ4-2, residues 1-616)
Technique: universal PBM
Molecule type: double-stranded DNA, one strand shown
Matrix: in vitro
Concentration: not given
Notes: 8-mer, flanks averaged, mean of replicates
Direction: higher = stronger binding
Construct (chain): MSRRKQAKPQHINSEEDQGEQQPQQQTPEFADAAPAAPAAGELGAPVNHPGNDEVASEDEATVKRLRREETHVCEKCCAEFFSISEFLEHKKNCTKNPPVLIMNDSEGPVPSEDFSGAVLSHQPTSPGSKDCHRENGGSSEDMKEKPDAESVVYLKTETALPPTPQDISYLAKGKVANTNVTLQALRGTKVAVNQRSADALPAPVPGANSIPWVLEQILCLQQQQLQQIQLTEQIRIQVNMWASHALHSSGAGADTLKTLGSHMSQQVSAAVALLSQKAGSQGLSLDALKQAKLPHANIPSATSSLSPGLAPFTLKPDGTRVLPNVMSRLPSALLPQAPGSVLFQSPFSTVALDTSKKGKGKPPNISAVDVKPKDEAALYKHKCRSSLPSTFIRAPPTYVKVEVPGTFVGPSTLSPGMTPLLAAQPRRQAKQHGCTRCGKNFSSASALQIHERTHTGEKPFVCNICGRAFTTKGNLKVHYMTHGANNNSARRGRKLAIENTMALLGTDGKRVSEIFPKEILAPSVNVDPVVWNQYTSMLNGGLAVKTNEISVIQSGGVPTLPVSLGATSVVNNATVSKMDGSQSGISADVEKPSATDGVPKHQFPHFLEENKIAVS
For `AAGTGGCG`, the E-score was 0.0602.
`CATGAATG` gave an E-score of 0.182.
`CGCGACGA` gave an E-score of -0.101.
`ACACGTGG` gave an E-score of -0.0638.
`CCAGAGCC` has an E-score of -0.25.
`CCTGCGCC` has an E-score of -0.237.

Study 3
Target: Prothrombin, mature alpha-thrombin (F2, Homo sapiens, UniProt P00734)
Technique: aptamer microarray, sandwich
Molecule type: DNA with 2'F-ANA
Matrix: in vitro
Concentration: 200 nM
Notes: whole 15-mer aptamer, many near background
Together with: Cy3 exosite-II aptamer, 400 nM
Direction: higher = stronger binding
Strand: GGTTGGTGTGGTTGG
For `2'F-ANA at 4 6 11 12 13 14`, “mean fluorescence intensity” read 94.1 a.u.
For `2'F-ANA at 2 3 5 12 14 15`, “mean fluorescence intensity” read 63.8 a.u.
For `2'F-ANA at 2 5 6 8 10 11 12`, “mean fluorescence intensity” read 52.6 a.u.
`2'F-ANA at 2 3 6 7 8 10 11 12 13 14` — result for “mean fluorescence intensity”: 299 a.u.
`2'F-ANA at 3 5 7 9 14 15`: “mean fluorescence intensity” 59 a.u.
For `2'F-ANA at 1 7 8 9 10 13`, “mean fluorescence intensity” read 61 a.u.
`2'F-ANA at 1 2 3 6 8 10 11 12 14 15` — result for “mean fluorescence intensity”: 58.3 a.u.
`2'F-ANA at 6 7 8 9 10 12 13 14 15`: “mean fluorescence intensity” 116 a.u.
`2'F-ANA at 3 4 5 7 10 11 12 14 15` — result for “mean fluorescence intensity”: 51.1 a.u.
For `2'F-ANA at 1 2 3 5 6 8 9 11 15`, “mean fluorescence intensity” read 52.4 a.u.
Under “mean fluorescence intensity”, `2'F-ANA at 4 6 12 13 15` is recorded as 370 a.u.
`2'F-ANA at 2 3 4 6 7 9 10 12 13 14 15`: “mean fluorescence intensity” 145 a.u.
`2'F-ANA at 2 3 4 10 14`: “mean fluorescence intensity” 205 a.u.
`2'F-ANA at 2 5 6 8 9 11 13 15` — result for “mean fluorescence intensity”: 60.9 a.u.
For `2'F-ANA at 1 7 9 10 12 14`, “mean fluorescence intensity” read 45.6 a.u.
For `2'F-ANA at 3 5 7 8 12 14`, “mean fluorescence intensity” read 80.2 a.u.

Study 4
Target: Histone acetyltransferase KAT6A, winged helix 2, GST fusion (KAT6A, Homo sapiens, UniProt Q92794, residues 85-181)
Technique: protein binding microarray
Molecule type: double-stranded DNA, one strand shown
Matrix: in vitro
Concentration: not given
Notes: 8-mer, flanks averaged, mean of 2 arrays, mostly near background
Baseline: not given
Direction: higher = stronger binding
Residues (chain): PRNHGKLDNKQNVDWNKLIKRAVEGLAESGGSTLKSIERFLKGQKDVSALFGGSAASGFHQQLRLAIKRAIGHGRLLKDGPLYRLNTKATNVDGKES
For `AGATATGA`, the E-score was 0.124.
With `GTCGCGTA` the E-score was 0.0617.
`TTGTTAAA` has an E-score of -0.00658.
`CTTAGATC` gave an E-score of 0.0128.
`CGAGACAG` gave an E-score of 0.0225.
For `TCTGGACA`, the E-score was -0.0568.

Other studies, line by line
With `PhoQ, residues 284 288 289 292 302 303 MLMVEA` the fold induction was 18 (PhoP, residues 12 14 15 18 19 NQFFI (Escherichia coli, UniProt P23836); Sort-seq, measured: YFP reporter; E. coli; PhoQ-PhoP variant library, together with: 10 µM Mg2+; baseline: high Mg2+ state, higher = stronger signaling).
